Experimental data collected from several papers.
± marks the error that the study gave.
Organism: Klebsiella pneumoniae

With `O=C(O)c1cn(C2CC2)c2cc(N3CCNCC3)c(F)cc2c1=O` the MIC was 0.49 mg/L (microbial growth, broth dilution).
With `CC1(C)S[C@@H]2[C@H](NC(=O)[C@H](N)c3ccccc3)C(=O)N2[C@H]1C(=O)O` the MIC was > 367 µM.
`Polymyxin B` gave an MIC of 2 mg/L (NCTC 13438; 5% CO2).
With `CC(C)(S)C(NC[C@H](NC[C@H](N)C(=O)O)C(=O)O)C(=O)O` (stereo in doubt) the MIC was 32 mg/L (broth microdilution; ATCC 33495 expressing NDM-1).
For `N#CC(=Cc1ccccc1O)C1=NC(=O)C(=Cc2cn(-c3ccccc3)nc2-c2ccccc2)S1`, the MIC was 0.46 mg/L (microbial growth, broth dilution).
`CCCCCCCC(=O)N[C@@H](CCCN)C(=O)N[C@H](C(=O)N[C@@H](CCCN)C(=O)N[C@H](Cc1ccccc1)C(=O)N[C@@H](CC(C)C)C(=O)N[C@@H](CCCN)C(=O)N[C@@H](C(=O)N[C@@H](CC(C)C)C(=O)N[C@@H](CO)C(N)=O)C(C)C)[C@@H](C)CC` has an MIC of 0.0313 to 0.0625 mg/L (checkerboard, item: rifampicin; ATCC 13883; sensitization to antibiotics, added: compound at 2 µg/mL).
`CCOC(=O)c1c(N)csc1-c1cn(-c2ccccc2)nc1-c1ccc(C)cc1` has an MIC of 0.125 ± 0.3 mg/L (broth microdilution; clinical urinary isolate; compound gamma-irradiated 20 kGy).
`CC[C@H](C)[C@H](NC(=O)[C@H](CCCNC(=N)N)NC(=O)[C@@H](N)CCCNC(=N)N)C(=O)N[C@@H](CCCNC(=N)N)C(=O)N1CCC[C@H]1C(=O)N[C@@H](CCCNC(=N)N)C(=O)N1CCC[C@H]1C(=O)N1CCC[C@H]1C(=O)N[C@@H](CCCNC(=N)N)C(=O)N[C@@H](CC(C)C)C(=O)N1CCC[C@H]1C(=O)N[C@@H](CCCNC(=N)N)C(=O)N1CCC[C@H]1C(=O)N[C@@H](CCCNC(=N)N)C(=O)N1CCC[C@H]1C(=O)N[C@@H](CCCNC(=N)N)C(=O)O` gave an MIC of 1 µM (broth microdilution; NTUH K2044, Mueller Hinton broth; 24 h, 37 °C).
With `CCCCCCCC(=O)N[C@@H](CCN)C(=O)N[C@H](C(=O)N[C@@H](CCN)C(=O)N[C@H](Cc1ccccc1)C(=O)N[C@@H](CC(C)C)C(=O)N[C@@H](CCN)C(=O)N[C@@H](C(=O)N[C@@H](CC(C)C)C(=O)N[C@@H](CCN)C(N)=O)C(C)C)[C@@H](C)CC` the MIC was 0.0019 to 0.0039 mg/L (checkerboard, item: rifampicin; ATCC 13883; sensitization to antibiotics, added: compound at 2 µg/mL).
For `O=C(O)c1cn(C2CC2)c2cc(N3CCNCC3)c(F)cc2c1=O`, the MIC was 2.9 µM (microbial growth, broth dilution; ATCC33495 DSM11678; 20 h).
The MIC of `CCCCCCCCCC(=O)N[C@@H](CCCCN)CN1CC(=O)N(c2ccc(N3CN(C[C@H](CCCCN)NC(=O)CCCCCCCCC)CC3=O)cc2)C1` is reported as < 6 mg/L (microbial growth; ATCC13383).
`CCCCCCCC(=O)N[C@@H](CCN)C(=O)N[C@@H](CCN)C(=O)N[C@@H](CCN)C(=O)N[C@H](Cc1ccccc1)C(=O)N[C@@H](CC(C)C)C(=O)N[C@@H](CCN)C(=O)N[C@@H](C(=O)N[C@@H](CC(C)C)C(=O)N[C@@H](CCN)C(N)=O)C(C)C` has an MIC of 0.0625 to 0.125 mg/L (checkerboard, item: rifampicin; ATCC 13883; sensitization to antibiotics, added: compound at 2 µg/mL).
The MIC of `CC[C@H](C)[C@H](NC(=O)[C@H](CCCNC(=N)N)NC(=O)[C@@H](N)CCCNC(=N)N)C(=O)N[C@@H](CCCNC(=N)N)C(=O)N1CCC[C@H]1C(=O)N[C@@H](CCCNC(=N)N)C(=O)N1CCC[C@H]1C(=O)N1CCC[C@H]1C(=O)N[C@@H](CCCNC(=N)N)C(=O)N[C@@H](CC(C)C)C(=O)N1CCC[C@H]1C(=O)N[C@@H](CCCNC(=N)N)C(=O)N1CCC[C@H]1C(=O)N[C@@H](CCCNC(=N)N)C(=O)N1CCC[C@H]1C(=O)N[C@@H](CCCNC(=N)N)C(=O)N1CCC[C@H]1C(=O)N[C@@H](CC(C)C)C(=O)N1CCC[C@H]1C(=O)N[C@@H](Cc1ccccc1)C(=O)N1CCC[C@H]1C(=O)N[C@@H](CCCNC(=N)N)C(=O)N1CCC[C@H]1C(=O)NCC(=O)N1CCC[C@H]1C(=O)N[C@@H](CCCNC(=N)N)C(=O)N1CCC[C@H]1C(=O)N[C@H](C(=O)N1CCC[C@H]1C(=O)N[C@@H](CCCNC(=N)N)C(=O)N1CCC[C@H]1C(=O)N[C@@H](CC(C)C)C(=O)N1CCC[C@H]1C(=O)N[C@@H](Cc1ccccc1)C(=O)N1CCC[C@H]1C(=O)O)[C@@H](C)CC` is reported as 0.5 µM (broth microdilution; NTUH K2044, Mueller Hinton broth; 24 h, 37 °C).
`colistin` has an MIC of 2 mg/L (NCTC 13438; 5% CO2).
